Experimental data collected from several papers.
Protocols differ between the studies behind these lines. Numbers after ± are the reported error.

Structure (SMILES) | cell line | test | conditions | IC50
N.N.[Cl][Pt][Cl] | MCF-12A | cell growth or viability, resazurin | 96 h | 11.2 µM
CC(C)c1ccc2c(c1)CC[C@H]1[C@](C)(CN)CCC[C@]21C | SBcl2 | cell growth or viability, MTS | 24 h | 7.41 µM
N.N.[Cl][Pt][Cl] | DU-145 | cell growth or viability, SRB |  | 2.8 µM
[H]/N=C(/NC)NCCC[C@H](N)C(=O)O | mouse peritoneal cells | nitric oxide production, Griess | 24 h, with: LPS plus IFN-gamma | 35.1 µM
CC[C@H](C)[C@H](N)C(=O)N[C@@H](CC(C)C)C(=O)N[C@@H](CCCNC(=N)N)C(=O)N[C@@H](Cc1c[nH]c2ccccc12)C(=O)N[C@@H](CO)C(=O)N[C@@H](CCCNC(=N)N)C(=O)N[C@@H](CCCCN)C(=O)N[C@@H](CC(C)C)C(=O)N1CCC[C@H]1C(=O)N[C@@H](CS)C(=O)N[C@H](C(=O)N[C@@H](CO)C(=O)O)C(C)C | SUP-T1 | ERK phosphorylation, inhibitor, phosphoflow cytometry | with: CXCL12 100 ng/mL, 2 min | 1.54 ± 0.51 µM
C1N2CN3CN1CP(C2)C3.Cc1cc(C)n(C(C(=O)OC(C)C)n2nc(C)cc2C)n1.F[P-](F)(F)(F)(F)F.[Cu+] | LoVo OXP, oxaliplatin-resistant | MTT | 72 h | 14.9 ± 1 µM
O=C1C[C@H](O)CO1 | RAW264.7 | NO release, inhibitor | LPS-stimulated | 20.9 µM
N.N.[Cl][Pt][Cl] | KCL-22 | cell viability, trypan blue exclusion | 48 h, dark | 13 ± 1.5 µM
CC1(C)Cc2c(-c3ccccc3)c(-c3ccc(Cl)cc3)c(CC(=O)O)n2C1 | AGS | IL-8 secretion | 24 h, with: IL-1β 1 ng/mL | 1.1 µM
O=C1C[C@@H](c2ccc(O)cc2)Oc2cc(O)ccc21 | MDA-MB-231 breast cancer | cell growth |  | 144 ± 14.5 µM
CCc1c2c(nc3ccc(OCc4ccc(NC(=O)[C@H](C)NC(=O)[C@@H](NC(=O)CCCCCNC(=O)COCCOCCOCCNC(=O)CCCCC(=O)N5Cc6ccccc6-c6c(nnn6CCOCCOCCOCCOCCC(=O)N[C@@H](Cc6c[nH]cn6)C(=O)N[C@@H](C)C(=O)N[C@H](C(=O)N[C@@H](Cc6ccc(O)cc6)C(=O)N6CCC[C@H]6C(=O)N[C@@H](CCCNC(=N)N)C(=O)N[C@@H](Cc6c[nH]cn6)C(=O)O)[C@@H](C)CC)-c6ccccc65)C(C)C)cc4)cc13)-c1cc3c(c(=O)n1C2)COC(=O)[C@]3(O)CC | U-87 MG | cytotoxicity, XTT | 72 h | 0.0701 µM
N.N.[Cl][Pt][Cl] | DU-145 | cell growth or viability, MTT | 24 h | 79.2 µM
N.N.[Cl][Pt][Cl] | HCC827 | cell growth or viability, MTT | 72 h | 4.76 µM
O=C(Cn1cnc2ccccc2c1=O)Nc1cc(Cl)ccc1O | MDA-MB-231 | cell growth or viability, crystal violet | 48 h | > 100 µM
Cc1c2ccncc2c(C)c2c1[nH]c1ccccc12 | MDA-MB-468 | cytotoxicity, MTT | 3 h exposure, 96 h total | 1.9 ± 0.76 µM
Nc1nc(Cl)c(F)c(Cl)n1 | mouse peritoneal cells | nitric oxide production, refers to: nitrite | 24 h, with: LPS plus IFN-gamma | 2 µM

Structure (SMILES) | cell line | test | conditions | IC50
COC(=O)[C@H]1[C@@H](O)[C@@]2(O)c3c(OC)cc(O[C@@H]4O[C@@H]([C@H](O)CO)CO[C@H]4OC)cc3O[C@@]2(c2ccc(OC)cc2)[C@@H]1c1ccccc1 | NIH/3T3 eIF4A1 knockdown | cell viability | 5 days | 0.0038 µM
COC(=O)/C=C/c1cc(O)ccc1O | H3255 (EGFR L858R) | cell viability, Alamar Blue | 120 h | > 10 µM
COc1cc2nccc(Oc3ccc(NC(=O)NC4CC4)c(Cl)c3)c2cc1C(N)=O | MHCC97H | cell growth or viability, MTT | 48 h | 0.7 µM
C#CC[C@H](N)C(=O)NCC(=O)NCC(=O)N[C@@H](Cc1ccc(O)cc1)C(=O)N[C@@H](CC(N)=O)C(=O)N[C@@H](CC(C)C)C(=O)N[C@@H](CCCNC(=N)N)C(=O)N1CCC[C@H]1C(=O)N[C@@H](CCCNC(=N)N)C(=O)N[C@H](C(=O)N[C@@H](Cc1ccc(O)cc1)C(=O)N[C@@H](CCC(N)=O)C(=O)N1CCC[C@H]1C(=O)N[C@@H](CCC(N)=O)C(=O)N[C@@H](CCCNC(=N)N)C(=O)N[C@@H](Cc1ccc(O)cc1)C(=O)NCC(=O)NCC(N)=O)[C@@H](C)O | A2780cisR | cell growth or viability, MTT | 72 h, drug-resistant strain | > 200 µM
N.N.[Cl][Pt][Cl] | CCD-18Co colon fibroblasts | cell viability, MTS | 48 h | 72 ± 1.5 µM
COc1ccc(C[C@H]2NC(=O)/C=C/C[C@@H]([C@H](C)[C@@H](OC(=O)CN)[C@@H](Cl)c3ccccc3)OC(=O)[C@H](CC(C)C)OC(=O)C(C)(C)CNC2=O)cc1Cl | M21 | cytotoxicity, resazurin | 2 h plus 70 h incubation, without β-glucuronidase | 0.00425 ± 0.00043 µM
COc1ccc(C[C@H]2NC(=O)/C=C/C[C@@H]([C@H](C)[C@@H](OC(=O)CNC(=O)OCc3ccc(NC(=O)[C@H](C)NC(=O)[C@@H](NC(=O)CCc4cn(CCOCCOCCOCCOCC(=O)NCc5ccc(CN6C(=O)[C@H]7CC(=O)N[C@@H](CCCNC(=N)N)C(=O)NCC(=O)N[C@@H](CC(=O)O)C(=O)NC[C@H]6C(=O)N7)cc5)nn4)C(C)C)cc3)[C@@H](Cl)c3ccccc3)OC(=O)[C@H](CC(C)C)OC(=O)C(C)(C)CNC2=O)cc1Cl | M21-L human melanoma (integrin αv-negative) | cell viability, MTT | 2 h treatment plus 70 h | 0.0223 ± 0.002 µM
Cc1sc2c(c1C)C(c1ccc(Cl)cc1)=N[C@@H](CC(=O)OC(C)(C)C)c1nnc(C)n1-2 | MOLM-14, parental and FLT3 D835Y or F691L | cell proliferation | 72 h | ~0.2 µM
CC(C)[C@@H]1NC(=O)[C@H](C)OC(=O)[C@@H](C(C)C)NC(=O)[C@@H](C(C)C)OC(=O)[C@H](C(C)C)NC(=O)[C@H](C)OC(=O)[C@@H](C(C)C)NC(=O)[C@@H](C(C)C)OC(=O)[C@H](C(C)C)NC(=O)[C@H](C)OC(=O)[C@@H](C(C)C)NC(=O)[C@@H](C(C)C)OC1=O | U-87 MG | cell growth or viability, SRB |  | 0.03 µM
C[C@@]12OC(=O)[C@]1([C@@H](O)[C@@H]1C=CCCC1)NC(=O)[C@@H]2CCCl | human astrocytes | C3 secretion, ELISA | with: stimulated PBMC supernatant | < 0.025 µM
CC(C)=CCOc1c2occc2cc2ccc(=O)oc12 | COLO 320 multidrug-resistant | cell growth, MTT | 72 h | 40.5 ± 1.22 µM
O=C(NCc1ccccc1)c1cc2c(F)cc(F)cc2[nH]1 | KNS-42 | cell growth or viability, resazurin | 72 h | 8.25 µM
C[C@H]1[C@H](OC(=O)CCC(=O)Oc2ccc(CCO)cc2)O[C@@H]2O[C@@]3(C)CC[C@H]4[C@H](C)CC[C@@H]1[C@@]24OO3 | SK-MEL-24 | cell viability, MTT | 24 h, with: deferoxamine 20 µM, 1 h before | 2.5 ± 0.6 µM
COc1ccc(C[C@H]2NC(=O)/C=C/C[C@@H]([C@H](C)[C@@H](OC(=O)CNC(=O)CCc3cn(CCOCCOCCOCCOCC(=O)NCc4ccc(CN5C(=O)[C@H]6CC(=O)N[C@@H](CCCNC(=N)N)C(=O)NCC(=O)N[C@@H](CC(=O)O)C(=O)NC[C@H]5C(=O)N6)cc4)nn3)[C@@H](Cl)c3ccccc3)OC(=O)[C@H](CC(C)C)OC(=O)C(C)(C)CNC2=O)cc1Cl | M21 human melanoma (integrin αvβ3-positive) | cell viability, MTT | 2 h treatment plus 70 h | 0.261 ± 0.0458 µM
CC(C)[C@H]1c2ccc(F)cc2CC[C@@]1(CCN(C)CCCc1nc2ccccc2[nH]1)OC(=O)C1CC1 | HepG2 | cell viability, ATP content | 24 h | 18.8 ± 1.5 µM
CO/C=C(/C(=O)OC)c1ccccc1Oc1cc(Oc2ccccc2C#N)ncn1 | HEK293T ERR reporter line | cell viability, qHTS |  | 30.6 µM
